Published values collected from several papers.
Every numbered part comes from another study and shows a few of its results, in no order.

Sample 1 — method: protein binding microarray; molecule type: double-stranded DNA, one strand shown; sample: in vitro; concentration: not given; relative to: not given; direction: higher = stronger binding
Target: Histone acetyltransferase KAT6A, both winged helices, GST fusion (KAT6A, Homo sapiens, UniProt Q92794, residues 1-181)
Notes: 8-mer, flanks averaged, mean of 2 arrays, mostly near background
Target sequence (chain): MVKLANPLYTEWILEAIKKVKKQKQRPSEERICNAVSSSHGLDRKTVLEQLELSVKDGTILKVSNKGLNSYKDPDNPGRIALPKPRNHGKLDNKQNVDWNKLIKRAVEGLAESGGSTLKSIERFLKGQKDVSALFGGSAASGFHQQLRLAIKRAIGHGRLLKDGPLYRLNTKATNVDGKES
With `CACTCTGC` the E-score was -0.222.
The E-score of `GCGGTCCA` is reported as 0.179.
`ATGCCAGG` gave an E-score of -0.182.

Sample 2 — method: protein-binding microarray; molecule type: double-stranded DNA, one strand shown; sample: in vitro; concentration: 0.8 µM; notes: whole 60-bp probe, no competitor; direction: higher = stronger binding
Target: Centromere-binding protein 1, full length, N-terminal tag (CBF1, Saccharomyces cerevisiae, UniProt P17106, residues 1-351)
Chain of UniProt P17106 (whole entry, looked up): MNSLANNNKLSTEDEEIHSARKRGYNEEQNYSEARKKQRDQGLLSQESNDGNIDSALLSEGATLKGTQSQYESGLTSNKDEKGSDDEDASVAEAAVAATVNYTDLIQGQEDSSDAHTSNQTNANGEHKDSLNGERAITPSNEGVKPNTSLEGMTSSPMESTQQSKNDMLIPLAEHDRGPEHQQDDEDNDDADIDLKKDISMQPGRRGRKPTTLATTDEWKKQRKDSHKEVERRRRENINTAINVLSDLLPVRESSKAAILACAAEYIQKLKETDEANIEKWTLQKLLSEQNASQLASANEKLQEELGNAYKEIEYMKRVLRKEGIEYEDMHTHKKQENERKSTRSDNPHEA
For `GAATCGGTAATTCTACATGTGTCTGATCAAGGTTAGGTCTTGATTCGCTTGACGCTGCTG`, the fluorescence intensity was 603 a.u.
The fluorescence intensity of `CTAAAATCTGGCAGTAACATCAATTAATGATACTTCGTCTTGATTCGCTTGACGCTGCTG` is reported as 527 a.u.
With `GAAAGCCCATAAAACGTCGTGATAATCCGCAACTAGGTCTTGATTCGCTTGACGCTGCTG` the fluorescence intensity was 538 a.u.

Further values, each from its own experiment
SALL4 full length isoform B: Sal-like protein 4, full length isoform B (SALL4, Homo sapiens, UniProt Q9UJQ4-2, residues 1-616)
For `AGCGGGGG`, the E-score was -0.299 (Sal-like protein 4, full length isoform A (SALL4, Homo sapiens, UniProt Q9UJQ4, residues 1-1053); universal PBM; double-stranded DNA, one strand shown, in vitro; 600 nM, 8-mer, flanks averaged, mean of replicates; higher = stronger binding).
For `PhoQ, residues 284 288 289 292 302 303 SCEHLI`, the fold induction was 9.55 (PhoP, residues 12 14 15 18 19 IQSYL (Escherichia coli, UniProt P23836); Sort-seq, item: YFP reporter; E. coli; PhoQ-PhoP variant library, with: 10 µM Mg2+; relative to: high Mg2+ state, higher = stronger signaling).
`AGCGAGGG` has an E-score of -0.0786 (SALL4 full length isoform B; universal PBM; double-stranded DNA, one strand shown, in vitro; not given, 8-mer, flanks averaged, mean of replicates; higher = stronger binding).
`AAACGTTT` gave an E-score of 0.224 (SALL4 full length isoform B; universal PBM; double-stranded DNA, one strand shown, in vitro; not given, 8-mer, flanks averaged, mean of replicates; higher = stronger binding).
